Values quoted from earlier work that unrelated publications cite.
± gives the spread as reported. Converted amounts (≈) assume the structure as drawn.

| Structure (SMILES) | target or system | test | system | setting | scale | endpoint | result |
| --- | --- | --- | --- | --- | --- | --- | --- |
| N#C[C@@]1(c2ccc3c(N)ncnn23)O[C@H](COP(=O)(O)OP(=O)(O)OP(=O)(O)O)[C@@H](O)[C@H]1O | PBM cells |  |  |  |  | half-life | 42.4 h |
| Cc1nnc2n1-c1ccc(Cl)cc1C(c1ccccc1Cl)=NC2 | CYP3A5 | substrate, item: 4-hydroxy metabolite formation |  |  |  | Km | 107 µM |
| CC(C)NCC(O)COc1cccc2ccccc12 (centres unmarked) |  |  | mouse |  |  | fraction unbound | 0.013 |
| CCCCCc1cc(O)c2c(c1)OC(C)(C)[C@@H]1CCC(C)=C[C@@H]21 | CYP2E1 human |  | human liver microsomes | 10 µM |  | inhibition | inhibited |
| FC1(F)C(F)(F)C(F)(F)C2(F)C(F)(C1(F)F)C(F)(F)C(F)(F)C1(F)C(F)(F)C(F)(F)C(F)(F)C(F)(F)C12F (centres unmarked) | CYP3A4 | inhibitor |  | Tox21 screening |  | IC50 | inactive |
| Cc1nc2n(c(=O)c1CCN1CCC(c3noc4cc(F)ccc34)CC1)CCCC2O (centres unmarked) |  |  | dog |  |  | fraction unbound | 0.126 |
| C=C[C@@H]1C[C@]1(NC(=O)[C@@H]1C[C@@H]2CN1C(=O)[C@H](C(C)(C)C)NC(=O)O[C@@H]1C[C@H]1CCCCCc1nc3ccc(OC)cc3nc1O2)C(=O)NS(=O)(=O)C1CC1 | BSEP (human) | ATP-dependent taurocholic acid uptake, inhibitor |  |  |  | IC50 | 0.15 µM |
| CC(C(=O)O)c1ccc(-c2ccccc2)c(F)c1 (centres unmarked) |  |  | human | dose not given |  | volume of distribution | 0.1 L/kg |
| C[Si]1(C)O[Si](C)(C)O[Si](C)(C)O[Si](C)(C)O[Si](C)(C)O1 | Cyprinus carpio |  |  | concentration not given, reanalysed data |  | bioconcentration factor | 625 L/kg wet weight |
| COc1ccc2c(c1)c(CC(=O)O)c(C)n2C(=O)c1ccc(Cl)cc1 |  |  | mouse |  |  | fraction unbound | 0.052 |
| O=NN1CCCC1 | induced pluripotent stem cells | mutational fingerprint |  | concentration not given |  | C>T mutation frequency | increased |
| O=C(NC(=O)c1c(F)cccc1F)Nc1cc(Cl)c(OC(F)(F)C(F)F)c(Cl)c1 | CYP1A2 | inhibitor |  | Tox21 screening |  | IC50 | 31.5 ± 15.7 µM |
| Cn1nc(C(F)(F)F)cc1C(=O)Nc1ccc(S(=O)(=O)N2CCCCC2)cc1 | measles virus |  | Vero |  | reference: CC50 over EC50 | selectivity index | 14200 |
| Nc1nnc(-c2cccc(Cl)c2Cl)c(N)n1 |  |  | mouse |  |  | fraction unbound | 0.18 |
| O=C(O)[C@@H](c1ccccc1)[C@@H]1CCCCN1 |  |  | human, CES1 wild type, plasma | oral, 10 mg methylphenidate, single dose after breakfast, median |  | AUC(0-inf) | 534 ng·h/mL |
| O=S(=O)(O)C(F)(F)C(F)(F)C(F)(F)C(F)(F)F | CYP2C9 | inhibitor |  | Tox21 screening |  | IC50 | 23 ± 2.52 µM |

| Structure (SMILES) | target or system | test | system | setting | scale | endpoint | result |
| --- | --- | --- | --- | --- | --- | --- | --- |
| COCCOC(=O)C1=C(C)NC(C)=C(C(=O)OC(C)C)C1c1cccc([N+](=O)[O-])c1 (centres unmarked) |  |  | human |  |  | fraction unbound | 0.008 |
| O=C(CS)Nc1ccc(Cl)c(Cl)c1 | HEK293 |  |  |  |  | IC50 | > 100 µM |
| CC(C)(C)[C@H](NC(=O)C(F)(F)F)C(=O)N1C[C@H]2[C@@H]([C@H]1C(=O)N[C@H](C#N)C[C@@H]1CCNC1=O)C2(C)C | MRC5 |  |  | concentration not given |  | cytotoxicity | not toxic |
| O=C(O)C(F)(F)C(F)(F)C(F)(F)C(F)(F)C(F)(F)C(F)(F)C(F)(F)C(F)(F)F | CYP1A2 | inhibitor |  | Tox21 screening |  | IC50 | inactive |
| NC1CCCCC1N.O=C([O-])C(=O)[O-].[Pt+2] (centres unmarked) |  | item: free platinum | mouse, plasma ultrafiltrate | intravenous, 8.34 mg Pt/kg |  | AUC | 3300 ng·h/mL |
| COCCN(CCOC)N=O | Salmonella typhimurium | plate incorporation, preincubation | TA1535 | up to 2000 µg/plate, with: uninduced rat liver S9 |  | Ames mutagenicity | negative |
| CCN(CC)C(=O)/C(C#N)=C/c1cc(O)c(O)c([N+](=O)[O-])c1 |  |  | mouse |  |  | fraction unbound | 0.026 |
| c1ccc2c(c1)Cc1ccccc1-2 |  |  |  | experimental mean |  | water solubility | 15.5 µM (≈ 2.58 µg/mL) |
| O=C(O)C(F)(F)C(F)(F)C(F)(F)C(F)(F)C(F)(F)C(F)(F)C(F)(F)F | CYP2D6 | inhibitor |  | Tox21 screening |  | IC50 | inactive |
| Cc1ncc2n1-c1ccc(Cl)cc1C(c1ccccc1F)=NC2 | CYP3A5 | 1-hydroxylation, substrate |  |  |  | Km | 4.16 µM |
| O=S(=O)([O-])C(F)(F)C(F)(F)C(F)(F)C(F)(F)C(F)(F)C(F)(F)F.[K+] | CYP2D6 |  |  | concentration not given |  | activity | inactive |
| CCCCCOc1ccc(-c2ccc(-c3ccc(C(=O)N[C@H]4C[C@@H](O)[C@@H](O)NC(=O)[C@@H]5[C@@H](O)[C@@H](C)CN5C(=O)[C@H]([C@@H](C)O)NC(=O)[C@H]([C@H](O)[C@@H](O)c5ccc(O)cc5)NC(=O)[C@@H]5C[C@@H](O)CN5C(=O)[C@H]([C@@H](C)O)NC4=O)cc3)cc2)cc1 |  |  | human, severe hepatic impairment | 50 mg single dose |  | volume of distribution | 50.8 ± 17 L |
| O=C(O)C(F)(F)C(F)(F)C(F)(F)C(F)(F)C(F)(F)C(F)(F)C(F)(F)C(F)(F)C(F)(F)F | CYP2D6 | inhibitor |  | Tox21 screening |  | IC50 | inactive |
| COC(=O)C1=C(C)NC(C)=C(C(=O)OCCN(C)Cc2ccccc2)C1c1cccc([N+](=O)[O-])c1 (centres unmarked) |  |  | dog |  |  | fraction unbound | 0.006 |
| O=C(O)C(F)(F)C(F)(F)C(F)(F)C(F)(F)C(F)(F)C(F)(F)C(F)(F)C(F)(F)C(F)(F)C(F)(F)F | CYP2D6 |  |  | concentration not given |  | activity | inactive |
| CN1CCCC(n2nc(Cc3ccc(Cl)cc3)c3ccccc3c2=O)CC1 (centres unmarked) |  |  | dog |  |  | fraction unbound | 0.011 |
